Published values of several laboratories.
Numbered parts are unrelated; each lists some results of a single study.

Block 1
Target: RNA binding protein fox-1 homolog 2, RRM domain, GST-SBP tag (RBFOX2, Homo sapiens, UniProt O43251-10, residues 100-194)
Technique: RNA Bind-n-Seq
Molecule type: RNA
Matrix: in vitro
Concentration: 365 nM
Notes: natural RNA segment, single round, ends assumed
Reference: no-protein control
Direction: higher = stronger binding
Quantity: RBNS enrichment (R)
All sequences stand within: GGGAGUUCUACAGUCCGACGAUC … UGGAAUUCUCGGGUGCCAA
Construct (chain): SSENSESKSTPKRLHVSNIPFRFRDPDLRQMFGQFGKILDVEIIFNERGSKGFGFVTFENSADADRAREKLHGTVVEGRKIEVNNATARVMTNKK
AAUUUCAUGGUUGUACUUCUUAGAUUUAAUUUCUAGGCCAACACGUUAUCUUAAGGUGCAGUUUUAAGGUUCAGGCAUGCGCUCUGGCUCAUAGUGUUUGAAAGUGAUGU: 0.673
GCAUGCACGUGCGCGUGUGUGCACACGCACACACACACACACACACACACACACACACACACACAAUGGGAGUGGGAUUAAGGUUUUCAUAAAUCUCAGCCAAUGGUCUU: 7.06
GAUGUGUUUCUUUCAUUUGCCAGAAUUCCUGAUACCAAAAGCCUCUCUCUCUGUUGAGUAACCUCUCAAGGACCAGAGUGGAGUCCAGAUUGUUAGGCUCAGAUCAAGGG: 0.414
CUUCAUUAUUCUCUGCUAUAUAUAAAACGGUGCUGUGAGGGAGGGGAAAAGCAUUUUUCAAUAUAUUGAACUUUUGUACUGAAUUUUUUUGUAAUAAGCAAUCAAGGUUA: 0.637
GUACAGAAACAGCCCCCGAAACCCACGCUUCUGAUUUACAGAAUCAGGUUCCUGUGAUGCAGGCUGACAGCCAGGGAGCACAACAGAUGCUGGACAAAGAUGAAAGCGAC: 0.373
GCAAAUGCUCCCUCCUUAAGGUUAUAGGGCUCCCUGAGUUUGGGAGUGUGGAAGUACUACUUAACUGUCUGUCCUGCUUGGCUGUCGUUAUCGUUUUCUGGUGAUGUUGU: 0.702
AUGUUAGAGGCUCACACUUUAGCUUGAAAGGAGUUGAUGAAUUAAUUUUUUAAAGGGAACUUUUUACAUGACGUUUGGAAUAACAGCAUAUUGCUGACCAGUCAGUGUCA: 1.23
UUUCCUGCAUCUCUCAGACAGGACUCACCAUCUCUGCCUCCCAUGAGGCUUACAGAGUUCAAUGUUGGAAAUCAUUGUAAUCUUCAAAAUAAGUCACCGUGUUGGAUUGA: 0.28
UAAAGCAGGCUGAUCGGGCAAUGGGAGGUGGCCAGGCCUGCCAGCCCCUCGGCUCUGCCGCGGUGGGCCGAGGCCGCUGUUGGGGGUUUCCCUGUGUGGACCAUGGGGAU: 0.453
UGUAAUCAUAAAAUAACAGUAAAUUCCAAACCUCAAAAACUAUUAUGGCCUGAGCACAGCUGAAAUCUAGCAGAGUUUAACUCUUCUGCCUCCAUGUCUGUCACUUAUAA: 0.441
AGCAACGCAAUCCACUCCAUGCUGACUGGCACCAGACAGUGAGCGGCUCAGGAGUGAUGGAAAGCGGGGCCACCACGCCAGGAAGCAACUCCCUCUGCAGCGCUCGUCUG: 0.281
CCCUGUACUUAAGAGGGAGAGGUGGGAGGUGCUGUCUGGUAUCAUUUGCUGCCUCGCCAGUAGAGGGUGCCGCUGUGCAGGGUAACUGCCCGCCUGCUCCCUUCCUGACC: 0.255

Block 2
Target: Interferon regulatory factor 5, full length, phosphomimetic (IRF5, Homo sapiens, UniProt Q13568-2, residues 1-514, K96S/S451D/S453D/S456D/S462D)
Technique: protein-binding microarray
Molecule type: double-stranded DNA, one strand shown
Matrix: in vitro
Concentration: 250 nM
Notes: 60-bp whole probe
Added: salmon DNA 0.4 mg/ml
Reference: random background probes
Direction: higher = stronger binding
Quantity: log fluorescence
All sequences stand within: GCCTAGCAC … GTCTTGATTCGCTTGACGCTGCTG
GACGGACTGGAATATCGGGACGTGCTA: 0.251 z-score
TTAGGTCACCTACTGCTTTAGTGCTAG: -0.229 z-score
TTAGATCTCAGACTGGATTAGTGCTAG: 0.0101 z-score
TGTCCTTTTCTTTACTGATGGTGCTAG: 1.18 z-score
GACGAACTGGTGTATCGAGACGTGCTA: 0.342 z-score
TCAATTTTCTAAATTCCACTGTGCTAG: 0.705 z-score
GACGATTACGGGACTGGAGACGTGCTA: -0.22 z-score
TCATTTTTTTCTTTAAAACTGTGCTAG: 1.31 z-score
GACGGTTTCCTTTTCCTGGCGTGCTAG: 1.12 z-score
TTAGGTTTCCCACTGCTTTAGTGCTAG: 0.381 z-score
TTAGGTTTCCTACTGCTTTGGTGCTAG: 0.236 z-score

Block 3
Target: Histone acetyltransferase KAT6A, both winged helices, GST fusion (KAT6A, Homo sapiens, UniProt Q92794, residues 1-181)
Technique: protein binding microarray
Molecule type: double-stranded DNA, one strand shown
Matrix: in vitro
Concentration: not given
Notes: 8-mer, flanks averaged, mean of 2 arrays, mostly near background
Reference: not given
Direction: higher = stronger binding
Quantity: E-score
Residues (chain): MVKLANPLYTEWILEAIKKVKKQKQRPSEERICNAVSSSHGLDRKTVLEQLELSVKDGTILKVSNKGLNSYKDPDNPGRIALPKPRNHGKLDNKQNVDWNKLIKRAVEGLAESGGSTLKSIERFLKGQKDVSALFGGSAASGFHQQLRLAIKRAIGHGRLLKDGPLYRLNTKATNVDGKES
ACCCTATA: -0.163
AAGTTACC: 0.0334
CCGATCCA: 0.0472
ACGAACAC: 0.0747
AGGTTTAC: -0.119
AAACCAAT: -0.189
CATCCTCA: -0.09
CCCCGATA: 0.0919
GGTCGCTA: 0.12
ATCCCACC: 0.0248
AGGACAAA: -0.0729
AAGATTTA: -0.0896
GCACTCCA: -0.0858
AACTTCGA: -0.106

Other studies, line by line
PhoQ, residues 284 288 289 292 302 303 ASVMEA  fold induction (PhoP, residues 12 14 15 18 19 NHFRA (Escherichia coli, UniProt P23836); Sort-seq, refers to: YFP reporter; E. coli; PhoQ-PhoP variant library, added: 10 µM Mg2+; reference: high Mg2+ state, higher = stronger signaling): 3.87

Repeated from above (block 1):
AAUUUCAUGGUUGUACUUCUUAGAUUUAAUUUCUAGGCCAACACGUUAUCUUAAGGUGCAGUUUUAAGGUUCAGGCAUGCGCUCUGGCUCAUAGUGUUUGAAAGUGAUGU: 0.673
UGUAAUCAUAAAAUAACAGUAAAUUCCAAACCUCAAAAACUAUUAUGGCCUGAGCACAGCUGAAAUCUAGCAGAGUUUAACUCUUCUGCCUCCAUGUCUGUCACUUAUAA: 0.441
